# Measurements gathered from unrelated publications.
# Compare with care: the assays were run in different laboratories. “And” joins repeats or separate records; there may be more than shown. Numbers after ± are the reported error.
Compound,tested on,test,test system,setting,scale,endpoint,result
CCCC(=O)NCC(=O)N[C@@H](CC(C)C)C(=O)N[C@@H](CC(C)C)C(=O)N[C@@H](CCCCN)C(=O)N[C@@H](CCCNC(=N)N)C(=O)N[C@H](C(=O)N[C@@H](CCCCN)C(=O)N[C@H](C(=O)N[C@@H](CC(C)C)C(=O)N[C@@H](CC(C)C)C(=O)NCCCC[C@H](NC(=O)[C@H](CCCCNC(=O)[C@H](CC(C)C)NC(=O)[C@H](CC(C)C)NC(=O)[C@@H](NC(=O)[C@H](CCCCN)NC(=O)[C@@H](NC(=O)[C@H](CCCNC(=N)N)NC(=O)[C@H](CCCCN)NC(=O)[C@H](CC(C)C)NC(=O)[C@H](CC(C)C)NC(=O)CNC(=O)CCC)[C@@H](C)CC)[C@@H](C)O)NC(=O)[C@H](CC(C)C)NC(=O)[C@H](CC(C)C)NC(=O)[C@@H](NC(=O)[C@H](CCCCN)NC(=O)[C@@H](NC(=O)[C@H](CCCNC(=N)N)NC(=O)[C@H](CCCCN)NC(=O)[C@H](CC(C)C)NC(=O)[C@H](CC(C)C)NC(=O)CNC(=O)CCC)[C@@H](C)CC)[C@@H](C)O)C(N)=O)[C@@H](C)O)[C@@H](C)CC,human erythrocytes,,,"1 h, 37 °C, 10% haemolysis",,minimum haemolytic concentration,3.18 µM
COc1ccc(CNc2nc(N3CCC[C@H]3CO)ncc2C(=O)NN)cc1Cl,Salmonella typhimurium,,TA98,"62.5 µg/plate, 48 h",,revertant count,34 ± 4
C[C@@](O)(C(F)F)[C@H](NC(=O)c1ccc(C#CC#CC2CC2)cc1)C(=O)NO,,,CD-1 mouse,"oral, 40 mg/kg, not fasted",relative to: AUC oral over AUC IV,oral bioavailability,~23% and 23%
CCCCCC(=O)NCC(=O)N[C@@H](CC(C)C)C(=O)N[C@@H](CC(C)C)C(=O)N[C@@H](CCCCN)C(=O)N[C@@H](CCCNC(=N)N)C(=O)N[C@H](C(=O)N[C@@H](CCCCN)C(=O)N[C@H](C(=O)N[C@@H](CC(C)C)C(=O)N[C@@H](CC(C)C)C(N)=O)[C@@H](C)O)[C@@H](C)CC,human erythrocytes,,,"1 h, 37 °C, 10% haemolysis",,minimum haemolytic concentration,> 256 µM
O=C1C=CC(=O)C(c2cc(Cl)ccc2Cl)=C1,,,BALB/c mouse,"sc, 10 mg/kg daily, 5 days/week, two weeks",,tolerability,not toxic
Cl.Cl.Cl.Cl.Cl.Cl.Cl.Cl.Cl.Cl.Cl.Cl.NC[C@@H]1O[C@H](O[C@H]2[C@@H](O)[C@H](O[C@@H]3[C@@H](O)[C@H](N)C[C@H](N)[C@H]3O[C@H]3O[C@H](CN)[C@@H](O)[C@H](O)[C@H]3N)O[C@@H]2Cn2cc(CCCCCCc3cn(C[C@H]4O[C@@H](O[C@@H]5[C@@H](O)[C@H](N)C[C@H](N)[C@H]5O[C@H]5O[C@H](CN)[C@@H](O)[C@H](O)[C@H]5N)[C@H](O)[C@@H]4O[C@H]4O[C@@H](CN)[C@@H](O)[C@H](O)[C@H]4N)nn3)nn2)[C@H](N)[C@@H](O)[C@@H]1O,MT-2,cytotoxicity,,,,CT5,34 µM
CCCCCCCC(=O)NCC(=O)N[C@@H](CC(C)C)C(=O)N[C@@H](CC(C)C)C(=O)N[C@@H](CCCCN)C(=O)N[C@@H](CCCNC(=N)N)C(=O)N[C@H](C(=O)N[C@@H](CCCCN)C(=O)N[C@H](C(=O)N[C@@H](CC(C)C)C(=O)N[C@@H](CC(C)C)C(=O)NCCCC[C@H](NC(=O)[C@H](CC(C)C)NC(=O)[C@H](CC(C)C)NC(=O)[C@@H](NC(=O)[C@H](CCCCN)NC(=O)[C@@H](NC(=O)[C@H](CCCNC(=N)N)NC(=O)[C@H](CCCCN)NC(=O)[C@H](CC(C)C)NC(=O)[C@H](CC(C)C)NC(=O)CNC(=O)CCCCCCC)[C@@H](C)CC)[C@@H](C)O)C(=O)NCCCC[C@H](NC(=O)[C@H](CCCCNC(=O)[C@H](CC(C)C)NC(=O)[C@H](CC(C)C)NC(=O)[C@@H](NC(=O)[C@H](CCCCN)NC(=O)[C@@H](NC(=O)[C@H](CCCNC(=N)N)NC(=O)[C@H](CCCCN)NC(=O)[C@H](CC(C)C)NC(=O)[C@H](CC(C)C)NC(=O)CNC(=O)CCCCCCC)[C@@H](C)CC)[C@@H](C)O)NC(=O)[C@H](CC(C)C)NC(=O)[C@H](CC(C)C)NC(=O)[C@@H](NC(=O)[C@H](CCCCN)NC(=O)[C@@H](NC(=O)[C@H](CCCNC(=N)N)NC(=O)[C@H](CCCCN)NC(=O)[C@H](CC(C)C)NC(=O)[C@H](CC(C)C)NC(=O)CNC(=O)CCCCCCC)[C@@H](C)CC)[C@@H](C)O)C(N)=O)[C@@H](C)O)[C@@H](C)CC,human erythrocytes,,,"1 h, 37 °C, 10% haemolysis",,minimum haemolytic concentration,103 µM
Cc1nc([C@H](NC(=O)c2ccc(-c3ccc(Cl)cc3)[nH]2)[C@H]2CCCCN2)sc1CO,U87/CD4/CCR5,"cell growth or viability, XTT",,,,CC50,~24 µM
CCC(=O)N(C)c1ccc(Cl)c(Cl)c1,Salmonella typhimurium,Ames test,TA100,"0.50 mg/plate, with rat liver S9",,revertant colonies,79 ± 3.1 revertants/plate
CCC1CN2CCC3(O)C(=Nc4cccc(OC)c43)C2CC1C(=COC)C(=O)OC (stereo not drawn),"UDP-glucuronosyltransferase, human","4-MU glucuronidation, inhibitor",human liver microsomes,"30 min, pH 7.4, with: 4-methylumbelliferone 100 µM",,IC50,> 100 µM
CN(C)CC1CCCCC1(O)c1cccc(O)c1 (stereo not drawn),Caco-2 TC7 monolayer,,,"10 µM, 3 h, apical pH 6.8, basolateral pH 7.4",relative to: B-to-A over A-to-B,efflux ratio,1.8
O=C(O)CCC(NP(=O)(O)OCCC[C@@H](NC(=O)CCC(NC(=O)c1ccc([18F])cc1)C(=O)O)C(=O)O)C(=O)O (stereo partly drawn),CWR22Rv1 tumour model,,"host not given, blood","intravenous, 2 h, tumour-bearing",,tracer uptake,0.07 %ID/g
COc1cc(C(=O)NCCOCCOCCOCCNC(=O)c2ccc([18F])nc2)ccc1NC(=O)C1NC(CC(C)(C)C)C(C#N)(c2ccc(Cl)cc2F)C1c1cccc(Cl)c1F (stereo not drawn),HepG2 tumour model,,"host not given, heart","2 h, tumour-bearing",,tracer uptake,0.72 %ID/g
COc1ccc(CNc2nc(N3CCC[C@H]3CO)ncc2C(=O)NNC(=O)c2cnc(N3CCC[C@H]3CO)nc2NCc2ccc(OC)c(Cl)c2)cc1Cl,Salmonella typhimurium,,TA1535,"125 µg/plate, 48 h",,revertant count,37 ± 2
O=C(O)CCC(NP(=O)(O)OCCC[C@@H](NC(=O)CCC(NC(=O)CCCCCNC(=O)c1ccc([18F])cc1)C(=O)O)C(=O)O)C(=O)O (stereo partly drawn),CWR22Rv1 tumour model,,"host not given, liver","intravenous, 2 h, tumour-bearing",,tracer uptake,0.29 %ID/g
C[C@]12CC[C@H](OCC[18F])C[C@H]1CC[C@@H]1[C@@H]2CC[C@]2(C)[C@@H](c3ccc(=O)oc3)CC[C@]12O,SMMC-7721 tumour model,,"nude, tumour","intravenous, 7.4 MBq, 35 min, tumour-bearing",,tracer uptake,4.38 %ID/g
CCCC(=O)NCC(=O)N[C@@H](CC(C)C)C(=O)N[C@@H](CC(C)C)C(=O)N[C@@H](CCCCN)C(=O)N[C@@H](CCCNC(=N)N)C(=O)N[C@H](C(=O)N[C@@H](CCCCN)C(=O)N[C@H](C(=O)N[C@@H](CC(C)C)C(=O)N[C@@H](CC(C)C)C(=O)NCCCC[C@H](NC(=O)[C@H](CC(C)C)NC(=O)[C@H](CC(C)C)NC(=O)[C@@H](NC(=O)[C@H](CCCCN)NC(=O)[C@@H](NC(=O)[C@H](CCCNC(=N)N)NC(=O)[C@H](CCCCN)NC(=O)[C@H](CC(C)C)NC(=O)[C@H](CC(C)C)NC(=O)CNC(=O)CCC)[C@@H](C)CC)[C@@H](C)O)C(N)=O)[C@@H](C)O)[C@@H](C)CC,human erythrocytes,,,"1 h, 37 °C, 10% haemolysis",,minimum haemolytic concentration,27.6 µM
CN[C@](C)(C[18F])C(=O)O,MDA-MB-468 tumour model,,"host not given, muscle","15 min, tumour-bearing",,tracer uptake,1.6 %ID/g

# For quick reference, copied from above:
Compound,tested on,test,test system,setting,scale,endpoint,result
O=C(O)CCC(NP(=O)(O)OCCC[C@@H](NC(=O)CCC(NC(=O)CCCCCNC(=O)c1ccc([18F])cc1)C(=O)O)C(=O)O)C(=O)O (stereo partly drawn),CWR22Rv1 tumour model,,"host not given, liver","intravenous, 2 h, tumour-bearing",,tracer uptake,0.29 %ID/g
C[C@]12CC[C@H](OCC[18F])C[C@H]1CC[C@@H]1[C@@H]2CC[C@]2(C)[C@@H](c3ccc(=O)oc3)CC[C@]12O,SMMC-7721 tumour model,,"nude, tumour","intravenous, 7.4 MBq, 35 min, tumour-bearing",,tracer uptake,4.38 %ID/g
CCCC(=O)NCC(=O)N[C@@H](CC(C)C)C(=O)N[C@@H](CC(C)C)C(=O)N[C@@H](CCCCN)C(=O)N[C@@H](CCCNC(=N)N)C(=O)N[C@H](C(=O)N[C@@H](CCCCN)C(=O)N[C@H](C(=O)N[C@@H](CC(C)C)C(=O)N[C@@H](CC(C)C)C(=O)NCCCC[C@H](NC(=O)[C@H](CC(C)C)NC(=O)[C@H](CC(C)C)NC(=O)[C@@H](NC(=O)[C@H](CCCCN)NC(=O)[C@@H](NC(=O)[C@H](CCCNC(=N)N)NC(=O)[C@H](CCCCN)NC(=O)[C@H](CC(C)C)NC(=O)[C@H](CC(C)C)NC(=O)CNC(=O)CCC)[C@@H](C)CC)[C@@H](C)O)C(N)=O)[C@@H](C)O)[C@@H](C)CC,human erythrocytes,,,"1 h, 37 °C, 10% haemolysis",,minimum haemolytic concentration,27.6 µM
